Experimental data collected from several papers.
Every numbered part comes from another study and shows a few of its results, in no order.
Chain of UniProt P51817 (whole entry, looked up): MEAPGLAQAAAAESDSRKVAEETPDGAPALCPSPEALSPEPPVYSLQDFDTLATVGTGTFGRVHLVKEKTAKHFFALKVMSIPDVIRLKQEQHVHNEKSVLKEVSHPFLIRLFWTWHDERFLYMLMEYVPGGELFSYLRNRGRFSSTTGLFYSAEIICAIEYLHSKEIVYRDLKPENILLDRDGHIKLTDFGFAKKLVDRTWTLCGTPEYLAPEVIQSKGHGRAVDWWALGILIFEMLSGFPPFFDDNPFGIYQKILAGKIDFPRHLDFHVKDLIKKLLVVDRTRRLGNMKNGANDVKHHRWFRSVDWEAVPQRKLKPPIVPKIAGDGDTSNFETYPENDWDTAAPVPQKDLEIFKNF
Chain of UniProt P57078 (whole entry, looked up): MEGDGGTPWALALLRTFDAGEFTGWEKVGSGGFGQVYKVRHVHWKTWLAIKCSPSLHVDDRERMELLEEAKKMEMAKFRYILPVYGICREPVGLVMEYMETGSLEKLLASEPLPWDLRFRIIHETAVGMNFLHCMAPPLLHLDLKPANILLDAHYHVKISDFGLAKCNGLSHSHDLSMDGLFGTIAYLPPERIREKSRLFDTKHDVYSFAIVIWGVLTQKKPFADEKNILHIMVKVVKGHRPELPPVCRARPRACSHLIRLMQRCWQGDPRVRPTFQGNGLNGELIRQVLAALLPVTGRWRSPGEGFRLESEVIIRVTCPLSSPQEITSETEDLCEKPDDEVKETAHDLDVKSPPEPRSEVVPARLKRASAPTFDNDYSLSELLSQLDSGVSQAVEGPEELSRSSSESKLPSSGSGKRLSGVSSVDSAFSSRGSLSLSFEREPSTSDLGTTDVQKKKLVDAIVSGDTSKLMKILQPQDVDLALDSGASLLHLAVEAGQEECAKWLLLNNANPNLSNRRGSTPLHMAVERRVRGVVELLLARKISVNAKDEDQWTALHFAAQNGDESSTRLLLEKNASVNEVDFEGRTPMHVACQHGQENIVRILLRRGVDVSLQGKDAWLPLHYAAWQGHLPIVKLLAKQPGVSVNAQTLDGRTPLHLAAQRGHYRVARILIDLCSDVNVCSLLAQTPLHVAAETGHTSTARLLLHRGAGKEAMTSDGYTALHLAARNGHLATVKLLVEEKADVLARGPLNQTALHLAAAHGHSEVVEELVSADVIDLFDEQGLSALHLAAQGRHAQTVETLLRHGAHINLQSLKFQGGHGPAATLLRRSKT
Chain of UniProt Q5VT25 (whole entry, looked up): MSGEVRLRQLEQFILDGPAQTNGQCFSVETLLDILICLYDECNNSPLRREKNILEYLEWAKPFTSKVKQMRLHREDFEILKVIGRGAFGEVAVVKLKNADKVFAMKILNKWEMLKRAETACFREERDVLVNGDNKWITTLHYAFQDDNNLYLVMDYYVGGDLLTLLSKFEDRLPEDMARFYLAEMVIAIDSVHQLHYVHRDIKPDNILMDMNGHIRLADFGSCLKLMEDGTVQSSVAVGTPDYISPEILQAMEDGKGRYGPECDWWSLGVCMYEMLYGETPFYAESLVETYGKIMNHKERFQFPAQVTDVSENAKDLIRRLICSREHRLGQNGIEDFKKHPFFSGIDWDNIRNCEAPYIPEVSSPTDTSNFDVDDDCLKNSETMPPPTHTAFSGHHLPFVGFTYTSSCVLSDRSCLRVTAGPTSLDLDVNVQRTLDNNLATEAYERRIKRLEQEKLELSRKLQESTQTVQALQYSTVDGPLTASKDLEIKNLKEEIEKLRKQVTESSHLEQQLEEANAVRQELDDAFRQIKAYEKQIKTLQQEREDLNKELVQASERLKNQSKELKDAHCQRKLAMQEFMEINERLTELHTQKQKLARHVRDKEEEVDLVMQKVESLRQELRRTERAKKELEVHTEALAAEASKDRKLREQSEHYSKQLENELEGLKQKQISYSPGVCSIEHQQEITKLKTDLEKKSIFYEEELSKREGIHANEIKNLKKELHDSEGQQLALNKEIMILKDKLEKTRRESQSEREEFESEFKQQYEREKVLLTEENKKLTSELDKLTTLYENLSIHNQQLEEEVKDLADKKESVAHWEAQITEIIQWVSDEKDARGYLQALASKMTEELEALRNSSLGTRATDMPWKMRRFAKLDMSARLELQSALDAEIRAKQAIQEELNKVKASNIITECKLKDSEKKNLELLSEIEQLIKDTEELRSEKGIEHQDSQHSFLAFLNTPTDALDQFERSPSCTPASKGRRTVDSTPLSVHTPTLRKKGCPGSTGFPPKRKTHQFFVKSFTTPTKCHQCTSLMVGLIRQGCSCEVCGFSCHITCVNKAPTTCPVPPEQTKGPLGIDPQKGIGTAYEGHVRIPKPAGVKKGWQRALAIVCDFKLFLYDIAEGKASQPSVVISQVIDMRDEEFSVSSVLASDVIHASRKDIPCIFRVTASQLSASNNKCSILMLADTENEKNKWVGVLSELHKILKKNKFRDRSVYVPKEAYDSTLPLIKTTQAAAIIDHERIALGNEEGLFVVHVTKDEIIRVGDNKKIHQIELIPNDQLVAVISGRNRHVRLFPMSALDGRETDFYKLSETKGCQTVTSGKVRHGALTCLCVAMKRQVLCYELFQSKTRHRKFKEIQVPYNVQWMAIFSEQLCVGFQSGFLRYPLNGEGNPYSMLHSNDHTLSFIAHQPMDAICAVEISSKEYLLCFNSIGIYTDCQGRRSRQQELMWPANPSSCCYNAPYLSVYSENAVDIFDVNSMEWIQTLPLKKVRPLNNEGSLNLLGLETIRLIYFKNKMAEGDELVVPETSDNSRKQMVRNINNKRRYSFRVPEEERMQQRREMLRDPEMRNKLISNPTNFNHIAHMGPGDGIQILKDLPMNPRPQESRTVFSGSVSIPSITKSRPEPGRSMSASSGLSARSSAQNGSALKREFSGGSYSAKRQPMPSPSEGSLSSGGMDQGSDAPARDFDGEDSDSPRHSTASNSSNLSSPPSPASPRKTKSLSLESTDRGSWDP
Chain of UniProt Q13153 (whole entry, looked up): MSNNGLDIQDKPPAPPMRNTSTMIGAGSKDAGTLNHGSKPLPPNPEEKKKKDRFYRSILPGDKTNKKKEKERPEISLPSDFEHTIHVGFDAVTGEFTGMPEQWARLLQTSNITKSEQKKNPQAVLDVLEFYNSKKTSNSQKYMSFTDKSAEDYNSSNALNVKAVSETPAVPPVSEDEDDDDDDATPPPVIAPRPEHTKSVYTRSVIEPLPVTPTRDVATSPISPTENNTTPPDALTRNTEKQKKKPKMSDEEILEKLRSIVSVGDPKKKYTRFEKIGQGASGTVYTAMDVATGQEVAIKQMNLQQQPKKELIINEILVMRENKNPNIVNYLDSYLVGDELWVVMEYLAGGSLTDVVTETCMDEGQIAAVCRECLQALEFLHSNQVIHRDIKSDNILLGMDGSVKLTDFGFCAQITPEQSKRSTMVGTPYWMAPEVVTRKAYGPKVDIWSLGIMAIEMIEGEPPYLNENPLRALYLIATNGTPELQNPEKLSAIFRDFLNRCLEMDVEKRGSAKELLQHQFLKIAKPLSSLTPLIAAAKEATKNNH
Chain of UniProt P42684 (whole entry, looked up): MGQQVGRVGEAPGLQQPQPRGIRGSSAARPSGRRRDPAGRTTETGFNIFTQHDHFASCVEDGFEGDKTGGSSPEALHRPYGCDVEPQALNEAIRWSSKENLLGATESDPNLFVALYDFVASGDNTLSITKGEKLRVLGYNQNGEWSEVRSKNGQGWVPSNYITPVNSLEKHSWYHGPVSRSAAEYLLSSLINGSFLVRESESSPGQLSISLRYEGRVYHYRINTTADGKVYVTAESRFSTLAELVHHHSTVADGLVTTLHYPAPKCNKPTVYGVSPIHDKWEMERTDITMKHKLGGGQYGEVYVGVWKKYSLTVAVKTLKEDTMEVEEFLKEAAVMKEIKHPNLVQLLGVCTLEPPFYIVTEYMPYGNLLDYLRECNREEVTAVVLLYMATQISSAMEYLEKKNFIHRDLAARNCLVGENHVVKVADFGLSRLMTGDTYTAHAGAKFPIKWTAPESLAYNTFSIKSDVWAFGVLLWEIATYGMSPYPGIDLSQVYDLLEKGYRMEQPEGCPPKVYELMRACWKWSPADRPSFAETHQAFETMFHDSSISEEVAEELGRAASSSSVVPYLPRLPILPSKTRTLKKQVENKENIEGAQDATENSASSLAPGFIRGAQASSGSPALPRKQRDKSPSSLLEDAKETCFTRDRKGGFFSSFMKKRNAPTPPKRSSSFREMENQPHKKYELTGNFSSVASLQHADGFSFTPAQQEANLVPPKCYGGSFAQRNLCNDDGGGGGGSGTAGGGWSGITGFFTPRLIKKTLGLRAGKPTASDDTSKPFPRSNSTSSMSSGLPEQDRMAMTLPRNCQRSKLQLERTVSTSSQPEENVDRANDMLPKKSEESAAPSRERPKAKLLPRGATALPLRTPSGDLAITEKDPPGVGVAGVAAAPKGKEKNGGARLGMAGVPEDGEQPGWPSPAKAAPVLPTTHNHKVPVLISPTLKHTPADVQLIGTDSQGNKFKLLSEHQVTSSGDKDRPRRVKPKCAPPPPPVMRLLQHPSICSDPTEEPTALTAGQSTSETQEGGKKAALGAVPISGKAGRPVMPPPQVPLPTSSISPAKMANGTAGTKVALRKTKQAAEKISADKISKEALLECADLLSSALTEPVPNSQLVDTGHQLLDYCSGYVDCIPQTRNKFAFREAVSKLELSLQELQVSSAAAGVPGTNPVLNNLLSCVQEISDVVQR
Chain of UniProt Q00526 (whole entry, looked up): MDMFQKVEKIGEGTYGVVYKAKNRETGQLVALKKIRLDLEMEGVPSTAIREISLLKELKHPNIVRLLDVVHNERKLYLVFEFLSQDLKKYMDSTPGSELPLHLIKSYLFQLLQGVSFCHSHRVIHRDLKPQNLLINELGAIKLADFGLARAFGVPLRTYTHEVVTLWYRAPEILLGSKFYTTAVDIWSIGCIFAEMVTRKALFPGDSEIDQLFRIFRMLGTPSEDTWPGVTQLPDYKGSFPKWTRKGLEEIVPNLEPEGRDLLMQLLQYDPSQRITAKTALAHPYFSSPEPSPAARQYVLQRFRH

Sample 1
Cell line: mouse MPNST tumor cells
Method: high-content immunofluorescence imaging
Measured: nuclear SOX9
Tested at: 10 µM
Time: 12 h
Notes: mean of 2 replicates
Baseline: DMSO control
Reading: higher = more nuclear SOX9
Measurement: nuclear SOX9 intensity
Structure (SMILES) = CC(=O)NC(CC(=O)O)C(=O)NC(CCC(=O)O)C(=O)O (centres unmarked); value = 98.8 % of DMSO
Structure (SMILES) = O=C(NCc1cccc(O)c1)Nc1nc(-c2ccncc2)cs1; value = 110 % of DMSO
Structure (SMILES) = CCCCNc1ccc(C(=O)OCCOCCOCCOCCOCCOCCOCCOCCOCCOC)cc1; value = 104 % of DMSO
Structure (SMILES) = N#Cc1ccc(COC[C@H]2O[C@@H](n3c(NCc4ccc(Cl)c(Cl)c4)nc4c(N)ncnc43)[C@H](O)[C@@H]2O)cc1; value = 98.8 % of DMSO
Structure (SMILES) = C[C@@]1(O)[C@H](O)[C@@H](CO)O[C@H]1n1cnc2c(NC3CCCC3)nc(Cl)nc21; value = 93.9 % of DMSO
Structure (SMILES) = CC[C@H]1OC(=O)[C@H](C)[C@@H](O[C@H]2C[C@@](C)(OC)[C@@H](O)[C@H](C)O2)[C@H](C)[C@@H](O[C@@H]2O[C@H](C)C[C@H](N(C)C)[C@H]2O)[C@](C)(O)C[C@@H](C)/C(=N\OCOCCOC)[C@H](C)[C@@H](O)[C@]1(C)O; value = 126 % of DMSO

Sample 2
SMILES: CC(C)n1cnc(-c2ccc(F)cc2)c1-c1ncc(C(=O)Nc2ccc(N3CCN(C)CC3)cc2)[nH]1
Measurement: patients with TEAE
assay = phase 2a trial; test system = idiopathic pulmonary fibrosis patients; setting = oral, 60 mg once daily, ESR increased, grade 5; value = 0%
assay = phase 2a trial; test system = patients with idiopathic pulmonary fibrosis; setting = dose not given, renal and urinary disorders SOC, grade 2, all arms; value = 0%
assay = phase 2a trial; test system = patients with idiopathic pulmonary fibrosis; setting = 30 mg once daily, endocrine disorders SOC, grade 2; value = 0%
assay = phase 2a trial; test system = patients with idiopathic pulmonary fibrosis; setting = 60 mg once daily, eye swelling, grade 4; value = 0%
assay = phase 2a trial; test system = idiopathic pulmonary fibrosis patients; setting = oral, 60 mg once daily, CK-MB increased, grade 1; value = 1%
assay = phase 2a trial; test system = idiopathic pulmonary fibrosis patients; setting = oral, 30 mg once daily, blood/lymphatic disorders, grade 3; value = 1%
assay = phase 2a trial; test system = idiopathic pulmonary fibrosis patients; setting = oral, dose not given, urine red cells, grade 4, all arms; value = 0%
assay = phase 2a trial; test system = idiopathic pulmonary fibrosis patients; setting = oral, dose not given, ESR increased, grade 1, all arms; value = 2%
assay = phase 2a trial; test system = patients with idiopathic pulmonary fibrosis; setting = dose not given, endocrine disorders SOC, grade 4, all arms; value = 0%
assay = measured: intervertebral disc protrusion; test system = idiopathic pulmonary fibrosis patients; setting = 30 mg once daily; value = 0%
assay = phase 2a trial; test system = idiopathic pulmonary fibrosis patients; setting = oral, 60 mg once daily, LDL increased, grade 3; value = 0%
assay = measured: free thyroxine decreased; test system = idiopathic pulmonary fibrosis patients; setting = 60 mg once daily; value = 0%

Sample 3
Compound: CN([C@@H]1CCc2c(CC(=O)O)c3cc(S(C)(=O)=O)ccc3n2C1)S(=O)(=O)c1ccc(F)cc1
Observed: cell-free assay
Method: competition with immobilised ligand
Tested at: 1 µM
Measurement: remaining binding
target = EGFR (Homo sapiens, UniProt P00533, del747-752/P753S); value = 80%
target = Tyrosine-protein kinase ABL1, phosphorylated (ABL1, Homo sapiens, UniProt P00519); value = 74%
target = PRKX (Homo sapiens, UniProt P51817); value = 100%
target = ROCK2 (Homo sapiens, UniProt O75116); value = 100%
target = ABL2 (Homo sapiens, UniProt P42684); value = 100%
target = PAK1 (Homo sapiens, UniProt Q13153); value = 95%
target = RIPK4 (Homo sapiens, UniProt P57078); value = 75%
target = Aurora kinase A (AURKA, Homo sapiens, UniProt O14965); value = 100%
target = NEK6 (Homo sapiens, UniProt Q9HC98); value = 84%
target = CAMK2D (Homo sapiens, UniProt Q13557); value = 100%

Sample 4
SMILES: c1ccc(-c2n[nH]c3c2oc2ccccc23)cc1
Observed: enzyme activity
Action: inhibitor
Tested at: 0.5 µM
Baseline: control
Measurement: remaining activity
target = PKN1 (Homo sapiens, UniProt Q16512); value = 94.1%
target = CDC42BPA (Homo sapiens, UniProt Q5VT25); value = 87.4%
target = HIPK1 (Homo sapiens, UniProt Q86Z02); value = 103%
target = STK25 (Homo sapiens, UniProt O00506); value = 89.6%
target = Cyclin-dependent kinase 3, with cyclin E (CDK3, Homo sapiens, UniProt Q00526); value = 90%
target = NEK11 (Homo sapiens, UniProt Q8NG66); value = 103%
target = NLK (Homo sapiens, UniProt Q9UBE8); value = 92.3%
target = MATK (Homo sapiens, UniProt P42679); value = 94%
target = ALK (Homo sapiens, UniProt Q9UM73); value = 95.9%
target = TAOK3 (Homo sapiens, UniProt Q9H2K8); value = 94.8%
target = FLT4 (Homo sapiens, UniProt P35916); value = 108%
target = FER (Homo sapiens, UniProt P16591); value = 103%
target = FYN (Homo sapiens, UniProt P06241); value = 104%
target = PASK (Homo sapiens, UniProt Q96RG2); value = 97.4%
target = ITK (Homo sapiens, UniProt Q08881); value = 80.4%
target = SRC (Homo sapiens, UniProt P12931); value = 81.3%
target = FGR (Homo sapiens, UniProt P09769); value = 116%
target = Insulin receptor (INSR, Homo sapiens, UniProt P06213); value = 94.4%
target = LIM domain kinase 1 (LIMK1, Homo sapiens, UniProt P53667); value = 71.2%
target = MARK3 (Homo sapiens, UniProt P27448); value = 96.5%
target = PRKX (Homo sapiens, UniProt P51817); value = 79.8%
target = AKT1 (Homo sapiens, UniProt P31749); value = 86.9%

Repeated from above (sample 4):
target = Insulin receptor (INSR, Homo sapiens, UniProt P06213); value = 94.4%
target = LIM domain kinase 1 (LIMK1, Homo sapiens, UniProt P53667); value = 71.2%
target = FER (Homo sapiens, UniProt P16591); value = 103%
